Results of several laboratories.
Every numbered part comes from another study and shows a few of its results, in no order.
UniProt Q8NFD2, sequence (whole entry, looked up): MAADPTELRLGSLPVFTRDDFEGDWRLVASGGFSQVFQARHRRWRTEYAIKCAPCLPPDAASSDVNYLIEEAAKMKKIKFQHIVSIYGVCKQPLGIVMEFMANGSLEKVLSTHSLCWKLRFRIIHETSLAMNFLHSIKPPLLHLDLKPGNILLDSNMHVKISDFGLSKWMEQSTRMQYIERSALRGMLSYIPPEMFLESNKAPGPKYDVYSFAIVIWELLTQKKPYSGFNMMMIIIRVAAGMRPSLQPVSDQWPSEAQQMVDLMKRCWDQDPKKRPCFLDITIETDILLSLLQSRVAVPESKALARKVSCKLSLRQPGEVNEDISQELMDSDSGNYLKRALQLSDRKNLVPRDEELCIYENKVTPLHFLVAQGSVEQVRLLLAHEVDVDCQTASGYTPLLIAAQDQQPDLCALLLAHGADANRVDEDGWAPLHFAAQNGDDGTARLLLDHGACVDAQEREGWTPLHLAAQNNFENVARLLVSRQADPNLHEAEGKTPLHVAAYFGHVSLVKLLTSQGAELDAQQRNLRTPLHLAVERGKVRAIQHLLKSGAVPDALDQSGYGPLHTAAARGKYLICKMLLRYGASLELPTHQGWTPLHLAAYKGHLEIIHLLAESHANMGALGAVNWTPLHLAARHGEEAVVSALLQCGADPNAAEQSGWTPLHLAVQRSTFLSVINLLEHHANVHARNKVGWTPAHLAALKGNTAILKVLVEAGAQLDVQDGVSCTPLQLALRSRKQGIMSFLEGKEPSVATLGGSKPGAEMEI
UniProt P15056, sequence (whole entry, looked up): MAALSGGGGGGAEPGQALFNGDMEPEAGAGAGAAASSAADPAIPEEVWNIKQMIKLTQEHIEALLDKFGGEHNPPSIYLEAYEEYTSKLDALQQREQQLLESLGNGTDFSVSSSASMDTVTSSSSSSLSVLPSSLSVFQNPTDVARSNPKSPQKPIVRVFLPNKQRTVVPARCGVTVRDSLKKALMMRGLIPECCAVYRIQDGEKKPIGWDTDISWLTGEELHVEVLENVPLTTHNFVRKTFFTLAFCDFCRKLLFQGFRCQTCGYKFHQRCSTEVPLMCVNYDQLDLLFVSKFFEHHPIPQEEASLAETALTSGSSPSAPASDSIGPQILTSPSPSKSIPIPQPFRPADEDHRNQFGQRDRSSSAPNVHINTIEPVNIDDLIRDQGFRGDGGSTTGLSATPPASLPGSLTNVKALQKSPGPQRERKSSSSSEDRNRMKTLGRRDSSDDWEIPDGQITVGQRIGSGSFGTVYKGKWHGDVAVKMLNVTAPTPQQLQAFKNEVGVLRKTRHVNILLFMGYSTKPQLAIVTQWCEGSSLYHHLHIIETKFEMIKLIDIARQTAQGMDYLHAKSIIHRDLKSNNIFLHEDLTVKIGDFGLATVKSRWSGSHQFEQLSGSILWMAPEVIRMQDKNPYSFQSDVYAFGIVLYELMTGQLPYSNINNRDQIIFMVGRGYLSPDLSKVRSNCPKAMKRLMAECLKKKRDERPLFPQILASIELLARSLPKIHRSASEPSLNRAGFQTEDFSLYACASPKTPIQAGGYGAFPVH
UniProt Q8TDR2, sequence (whole entry, looked up): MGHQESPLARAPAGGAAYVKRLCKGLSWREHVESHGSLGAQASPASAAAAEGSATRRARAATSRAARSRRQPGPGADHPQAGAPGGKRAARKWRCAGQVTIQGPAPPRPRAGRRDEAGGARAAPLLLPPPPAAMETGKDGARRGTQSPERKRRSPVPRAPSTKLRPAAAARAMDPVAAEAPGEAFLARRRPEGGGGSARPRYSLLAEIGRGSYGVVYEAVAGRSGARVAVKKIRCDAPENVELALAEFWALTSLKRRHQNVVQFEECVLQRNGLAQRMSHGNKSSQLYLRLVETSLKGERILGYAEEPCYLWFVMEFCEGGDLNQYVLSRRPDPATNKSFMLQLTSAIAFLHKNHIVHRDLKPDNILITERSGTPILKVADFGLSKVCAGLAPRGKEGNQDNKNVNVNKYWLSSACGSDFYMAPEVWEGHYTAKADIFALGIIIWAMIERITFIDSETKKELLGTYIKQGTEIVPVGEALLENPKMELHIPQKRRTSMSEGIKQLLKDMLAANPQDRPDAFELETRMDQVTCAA
UniProt P42336, sequence (whole entry, unmodified, looked up): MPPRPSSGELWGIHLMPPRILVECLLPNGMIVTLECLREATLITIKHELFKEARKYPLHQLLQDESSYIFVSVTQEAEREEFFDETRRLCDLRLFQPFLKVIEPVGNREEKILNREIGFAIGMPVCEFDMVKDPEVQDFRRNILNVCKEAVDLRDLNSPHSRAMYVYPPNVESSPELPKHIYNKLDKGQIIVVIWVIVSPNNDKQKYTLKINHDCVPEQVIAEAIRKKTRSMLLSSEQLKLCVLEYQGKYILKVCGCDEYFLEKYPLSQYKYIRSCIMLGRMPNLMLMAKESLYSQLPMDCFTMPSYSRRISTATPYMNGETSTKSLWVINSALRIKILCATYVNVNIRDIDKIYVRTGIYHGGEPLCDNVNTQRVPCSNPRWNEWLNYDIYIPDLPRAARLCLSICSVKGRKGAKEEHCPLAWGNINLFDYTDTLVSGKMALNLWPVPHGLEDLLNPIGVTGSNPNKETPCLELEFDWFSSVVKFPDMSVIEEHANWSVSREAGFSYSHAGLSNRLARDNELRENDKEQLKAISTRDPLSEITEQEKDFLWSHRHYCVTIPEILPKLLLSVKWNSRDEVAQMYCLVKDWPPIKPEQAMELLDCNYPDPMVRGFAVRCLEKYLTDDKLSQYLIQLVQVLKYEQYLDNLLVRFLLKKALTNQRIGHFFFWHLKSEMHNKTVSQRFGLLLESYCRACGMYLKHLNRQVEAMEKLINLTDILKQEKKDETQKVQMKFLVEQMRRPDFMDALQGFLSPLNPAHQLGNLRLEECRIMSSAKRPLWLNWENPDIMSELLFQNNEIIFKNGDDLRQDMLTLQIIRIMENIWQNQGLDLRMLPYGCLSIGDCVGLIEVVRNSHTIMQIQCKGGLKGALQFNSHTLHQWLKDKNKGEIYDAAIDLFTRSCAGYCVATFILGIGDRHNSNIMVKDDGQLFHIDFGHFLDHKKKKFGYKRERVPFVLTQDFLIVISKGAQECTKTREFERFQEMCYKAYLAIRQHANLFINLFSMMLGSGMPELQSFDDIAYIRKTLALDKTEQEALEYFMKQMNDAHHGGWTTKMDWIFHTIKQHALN
UniProt P50750, sequence (whole entry, looked up): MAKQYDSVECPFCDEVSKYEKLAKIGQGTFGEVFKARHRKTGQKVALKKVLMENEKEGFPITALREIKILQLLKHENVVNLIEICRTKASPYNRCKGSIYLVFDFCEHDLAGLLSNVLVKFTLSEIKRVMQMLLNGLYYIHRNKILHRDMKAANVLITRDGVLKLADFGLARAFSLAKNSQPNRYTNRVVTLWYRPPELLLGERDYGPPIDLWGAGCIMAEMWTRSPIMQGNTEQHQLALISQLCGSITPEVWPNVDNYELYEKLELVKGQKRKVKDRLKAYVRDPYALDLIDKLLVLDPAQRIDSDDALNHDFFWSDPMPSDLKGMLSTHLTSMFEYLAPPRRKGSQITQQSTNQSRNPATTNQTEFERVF
UniProt P00519, sequence (whole entry, unmodified, looked up): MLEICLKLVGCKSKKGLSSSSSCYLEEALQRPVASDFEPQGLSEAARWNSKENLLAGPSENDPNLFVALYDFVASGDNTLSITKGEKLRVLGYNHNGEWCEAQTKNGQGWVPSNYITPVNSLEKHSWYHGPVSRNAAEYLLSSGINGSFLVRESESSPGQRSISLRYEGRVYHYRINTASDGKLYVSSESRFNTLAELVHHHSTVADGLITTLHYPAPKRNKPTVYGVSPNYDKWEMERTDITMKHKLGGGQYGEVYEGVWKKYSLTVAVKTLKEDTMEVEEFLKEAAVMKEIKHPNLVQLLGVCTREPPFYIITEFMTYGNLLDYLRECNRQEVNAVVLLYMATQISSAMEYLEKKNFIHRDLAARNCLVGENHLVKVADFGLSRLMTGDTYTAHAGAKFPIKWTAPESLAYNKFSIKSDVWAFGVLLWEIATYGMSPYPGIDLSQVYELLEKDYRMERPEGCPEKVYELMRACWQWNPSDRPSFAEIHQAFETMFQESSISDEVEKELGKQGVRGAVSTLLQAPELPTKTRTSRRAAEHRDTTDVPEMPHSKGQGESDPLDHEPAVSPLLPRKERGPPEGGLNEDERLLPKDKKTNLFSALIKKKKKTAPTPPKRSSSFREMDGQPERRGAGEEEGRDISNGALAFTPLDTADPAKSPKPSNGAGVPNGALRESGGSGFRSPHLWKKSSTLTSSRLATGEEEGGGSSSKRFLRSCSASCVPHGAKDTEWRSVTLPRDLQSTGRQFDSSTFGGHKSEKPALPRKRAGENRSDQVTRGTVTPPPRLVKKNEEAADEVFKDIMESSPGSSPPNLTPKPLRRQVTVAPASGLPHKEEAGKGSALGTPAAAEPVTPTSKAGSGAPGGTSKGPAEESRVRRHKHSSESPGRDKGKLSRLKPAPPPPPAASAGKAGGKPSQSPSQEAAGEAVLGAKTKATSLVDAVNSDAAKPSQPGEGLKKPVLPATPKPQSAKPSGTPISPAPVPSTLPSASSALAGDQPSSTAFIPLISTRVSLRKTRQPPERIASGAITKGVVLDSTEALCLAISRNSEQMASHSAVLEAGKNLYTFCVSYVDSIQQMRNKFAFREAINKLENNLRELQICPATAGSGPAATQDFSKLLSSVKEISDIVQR
UniProt O94768, sequence (whole entry, looked up): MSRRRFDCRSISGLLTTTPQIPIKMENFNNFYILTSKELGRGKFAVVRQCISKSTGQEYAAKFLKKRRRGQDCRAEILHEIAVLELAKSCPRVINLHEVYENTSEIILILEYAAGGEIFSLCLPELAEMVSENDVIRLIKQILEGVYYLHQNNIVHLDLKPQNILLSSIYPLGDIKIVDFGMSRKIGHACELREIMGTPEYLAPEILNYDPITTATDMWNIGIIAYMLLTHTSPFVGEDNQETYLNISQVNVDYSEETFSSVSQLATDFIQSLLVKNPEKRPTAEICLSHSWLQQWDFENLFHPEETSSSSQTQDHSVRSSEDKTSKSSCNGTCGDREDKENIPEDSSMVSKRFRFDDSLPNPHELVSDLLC

Sample 1 — tested at: 1 µM
Compound: O=C(Nc1ccc(Oc2ccc(F)cc2)cc1)N1CCc2ncccc2[C@H]1c1ccc(F)cc1
| target | test | remaining binding |
| --- | --- | --- |
| LIM domain kinase 1 (LIMK1, Homo sapiens, UniProt P53667) | cell-free assay, competition with immobilised ligand | 85% |
| PIK3CA (Homo sapiens, UniProt P42336, E545A) | cell-free assay, competition with immobilised ligand | 100% |
| CDK9 (Homo sapiens, UniProt P50750) | cell-free assay, competition with immobilised ligand | 87% |
| Tyrosine-protein kinase ABL1, phosphorylated (ABL1, Homo sapiens, UniProt P00519, F317I) | binding | 100% |
| PRPF4B (Homo sapiens, UniProt Q13523) | cell-free assay, competition with immobilised ligand | 100% |
| CDC42BPA (Homo sapiens, UniProt Q5VT25) | cell-free assay, competition with immobilised ligand | 94% |
| BUB1 (Homo sapiens, UniProt O43683) | cell-free assay, competition with immobilised ligand | 98% |
| STK35 (Homo sapiens, UniProt Q8TDR2) | cell-free assay, competition with immobilised ligand | 80% |
| MATK (Homo sapiens, UniProt P42679) | cell-free assay, competition with immobilised ligand | 90% |
| ANKK1 (Homo sapiens, UniProt Q8NFD2) | cell-free assay, competition with immobilised ligand | 92% |
| STK17B (Homo sapiens, UniProt O94768) | cell-free assay, competition with immobilised ligand | 89% |
| FLT3 (Homo sapiens, UniProt P36888, N841I) | cell-free assay, competition with immobilised ligand | 93% |
| BRAF (Homo sapiens, UniProt P15056) | cell-free assay, competition with immobilised ligand | 85% |
| EGFR (Homo sapiens, UniProt P00533, G719C) | cell-free assay, competition with immobilised ligand | 73% |

Sample 2 — organism: Sarcocystis neurona; effect on: parasite growth; tested at: 10 µM; notes: first screen; baseline: untreated
| SMILES | log2 fold change |
| --- | --- |
| CC1(C)S[C@@H]2[C@H](NC(=O)Cc3ccccc3)C(=O)N2[C@H]1C(=O)[O-].[K+] | 0.26 |
| COc1ccc(CC(C)NCC(O)c2ccc(O)c(NC=O)c2)cc1.COc1ccc(CC(C)NCC(O)c2ccc(O)c(NC=O)c2)cc1.O.O.O=C(O)/C=C/C(=O)O (stereo not shown) | 0.18 |
| C[C@]12CCC(=O)C=C1CC[C@@H]1[C@@H]2C(=O)C[C@@]2(C)[C@H]1CC[C@]2(O)C(=O)CO | -0.06 |
| CN(CCO)CC(O)Cn1cnc2c1c(=O)n(C)c(=O)n2C.O=C(O)c1cccnc1 (stereo not shown) | 0.11 |
| Cc1onc(-c2ccccc2)c1C(=O)N[C@@H]1C(=O)N2[C@@H]1SC(C)(C)[C@@H]2C(=O)O | 0.31 |
| O=c1[nH]c(=O)n([C@H]2C[C@H](O)[C@@H](CO)O2)cc1F | -1.66 |
| CCC1=C[C@@H]2CN(C1)Cc1c([nH]c3ccccc13)[C@@](C(=O)OC)(c1cc3c(cc1OC)N(C)[C@H]1[C@@](O)(C(=O)OC)[C@H](OC(C)=O)[C@]4(CC)C=CCN5CC[C@]31[C@@H]54)C2.O=C(O)C(O)C(O)C(=O)O.O=C(O)C(O)C(O)C(=O)O | -0.65 |
| Nc1ccc2cn[nH]c2c1 | 0.15 |
| COC(=O)C1=C(C)NC(C)=C(C(=O)O[C@@H]2CCCN(Cc3ccccc3)C2)[C@@H]1c1cccc([N+](=O)[O-])c1.Cl (racemic) | -0.26 |
| COc1cc(C[C@@H](CO)[C@H](CO)Cc2ccc(O)c(OC)c2)ccc1O | 0.45 |
| Cl.NC[C@H](O)c1ccc(O)c(O)c1 | 0.32 |
| Cl.Nc1nc2ccc(OC(F)(F)F)cc2s1 | 1.46 |

Sample 3 — species: mouse; medium: microsomes or S9; tested at: 2 µM; time: 0.5 h
| SMILES | remaining compound |
| --- | --- |
| CC(C)OC(=O)c1c(NC(=O)CN2CCN(C)CC2)sc2c1CCCC2 | 8.68% |
| CN(C(=O)c1ccc(C(=O)c2ccccc2)cc1)c1ccccc1 | 0.0629% |
| c1ccc(C(Nc2ccc3nccnc3n2)c2ccccc2)cc1 | 1.77% |
| Cc1ccc(CNS(=O)(=O)CC2=NC(=O)n3cccc3C2=O)cc1 | 2.47% |
| O=C(O)Cn1cnc(S(=O)(=O)N2CCCC2)c1 | 79.1% |
| Cc1nn(-c2ccccc2)c(N2CCCCC2)c1C=C(c1nc2ccccc2s1)c1nc2ccccc2s1 | 15.2% |
| COCCN1C(=O)C(CC(=O)O)=C2CCCCC21 (stereo not shown) | 83% |
| Cc1cccc(NC(=O)Nc2ccc(Nc3ccc(-n4cccn4)nn3)cc2)c1 | 42.7% |
| CC[C@@H](C)[C@H](NS(=O)(=O)c1ccccc1)C(=O)O | 99.4% |
| Nc1[nH]nc(-c2ccc(Br)s2)c1-c1ccc2c(c1)OCO2 | 3.14% |
| C/C=C/Cn1c(C(=O)c2cc(C)cc(C)c2)c(CC)c(=O)[nH]c1=O | 43.5% |

Sample 4 — cell line: mouse MPNST tumor cells; method: high-content immunofluorescence imaging; measured: nuclear SOX9; tested at: 10 µM; time: 12 h; notes: mean of 2 replicates; baseline: DMSO control; reading: higher = more nuclear SOX9
| SMILES | nuclear SOX9 intensity |
| --- | --- |
| O=C1NC(=NCc2cccs2)S/C1=C\c1ccc2ncccc2c1 | 98.2 % of DMSO |
| Cc1nnc(-c2ccc3occ(-c4ccc([S+](C)[O-])cc4)c3c2)o1 (stereo not shown) | 91.3 % of DMSO |
| O=c1onc2cnc3ccccc3n12 | 92.9 % of DMSO |
| CC(C(=O)O)c1ccc(C(=O)c2cccs2)cc1 (stereo not shown) | 99.1 % of DMSO |
| CN1[C@@H]2CC[C@H]1C[C@@H](OC(=O)c1c[nH]c3ccccc13)C2 | 111 % of DMSO |
| Nc1nccc(-c2c(-c3ccc(F)cc3)ncn2C2CCCCC2)n1 | 109 % of DMSO |
| CSc1nc(N)cc(Oc2ccc(-c3nc(Nc4cccc(C(F)(F)F)c4)n[nH]3)cc2)n1 | 192 % of DMSO |
| COc1ncc(-c2ccc3c(Nc4cc(Oc5cc(F)cc(F)c5)cc(C(=O)O)c4)c(S(=O)(=O)NC4CC4)cnc3c2)c(OC)n1 | 103 % of DMSO |
| CN(C)[C@@H]1C(=O)C(C(N)=O)=C(O)[C@@]2(O)C(=O)C3=C(O)c4c(O)ccc(Cl)c4[C@@H](O)[C@H]3C[C@@H]12 | 107 % of DMSO |

Some of these lines once more (sample 1):
| target | test | remaining binding |
| --- | --- | --- |
| ANKK1 (Homo sapiens, UniProt Q8NFD2) | cell-free assay, competition with immobilised ligand | 92% |
| STK17B (Homo sapiens, UniProt O94768) | cell-free assay, competition with immobilised ligand | 89% |
| FLT3 (Homo sapiens, UniProt P36888, N841I) | cell-free assay, competition with immobilised ligand | 93% |
| BRAF (Homo sapiens, UniProt P15056) | cell-free assay, competition with immobilised ligand | 85% |
| EGFR (Homo sapiens, UniProt P00533, G719C) | cell-free assay, competition with immobilised ligand | 73% |
